Measured values of several laboratories.
Each line is one published result; not all experiments were run side by side. Values joined by “and” are separate records of one study, mostly repeats; a detail may differ. ± marks the error that the study gave.
CYP1A2: Cytochrome P450 1A2 (CYP1A2, Homo sapiens, UniProt P05177)
UniProt P05177, sequence (whole entry, looked up): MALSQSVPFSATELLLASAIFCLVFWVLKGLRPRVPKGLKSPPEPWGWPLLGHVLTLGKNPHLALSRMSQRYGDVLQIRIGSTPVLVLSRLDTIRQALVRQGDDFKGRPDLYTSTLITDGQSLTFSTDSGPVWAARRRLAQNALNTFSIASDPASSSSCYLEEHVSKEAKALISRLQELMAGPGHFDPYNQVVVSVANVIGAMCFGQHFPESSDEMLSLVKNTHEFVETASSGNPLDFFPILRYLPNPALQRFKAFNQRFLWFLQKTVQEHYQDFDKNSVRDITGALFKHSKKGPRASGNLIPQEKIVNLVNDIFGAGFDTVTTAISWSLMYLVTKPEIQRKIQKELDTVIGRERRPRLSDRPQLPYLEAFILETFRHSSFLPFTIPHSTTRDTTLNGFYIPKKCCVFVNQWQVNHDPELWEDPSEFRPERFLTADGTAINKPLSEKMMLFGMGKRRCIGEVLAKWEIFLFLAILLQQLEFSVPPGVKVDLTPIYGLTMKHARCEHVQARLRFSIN
CYP2D6: Cytochrome P450 2D6 (CYP2D6, Homo sapiens, UniProt P10635)
UniProt P10632, sequence (whole entry, looked up): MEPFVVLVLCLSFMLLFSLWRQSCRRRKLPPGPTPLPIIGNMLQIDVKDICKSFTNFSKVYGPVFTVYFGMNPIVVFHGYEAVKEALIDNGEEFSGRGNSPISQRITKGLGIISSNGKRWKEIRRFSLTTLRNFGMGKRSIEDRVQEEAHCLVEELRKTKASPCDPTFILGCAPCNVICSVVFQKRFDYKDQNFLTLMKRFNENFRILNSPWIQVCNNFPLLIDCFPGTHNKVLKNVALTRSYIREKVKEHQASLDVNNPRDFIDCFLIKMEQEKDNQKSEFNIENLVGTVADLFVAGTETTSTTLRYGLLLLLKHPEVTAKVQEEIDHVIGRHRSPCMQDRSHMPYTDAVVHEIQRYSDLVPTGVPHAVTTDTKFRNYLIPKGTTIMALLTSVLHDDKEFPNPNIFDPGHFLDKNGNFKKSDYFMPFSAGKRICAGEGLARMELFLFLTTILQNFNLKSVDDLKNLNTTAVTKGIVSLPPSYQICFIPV
UniProt P10635, sequence (whole entry, looked up): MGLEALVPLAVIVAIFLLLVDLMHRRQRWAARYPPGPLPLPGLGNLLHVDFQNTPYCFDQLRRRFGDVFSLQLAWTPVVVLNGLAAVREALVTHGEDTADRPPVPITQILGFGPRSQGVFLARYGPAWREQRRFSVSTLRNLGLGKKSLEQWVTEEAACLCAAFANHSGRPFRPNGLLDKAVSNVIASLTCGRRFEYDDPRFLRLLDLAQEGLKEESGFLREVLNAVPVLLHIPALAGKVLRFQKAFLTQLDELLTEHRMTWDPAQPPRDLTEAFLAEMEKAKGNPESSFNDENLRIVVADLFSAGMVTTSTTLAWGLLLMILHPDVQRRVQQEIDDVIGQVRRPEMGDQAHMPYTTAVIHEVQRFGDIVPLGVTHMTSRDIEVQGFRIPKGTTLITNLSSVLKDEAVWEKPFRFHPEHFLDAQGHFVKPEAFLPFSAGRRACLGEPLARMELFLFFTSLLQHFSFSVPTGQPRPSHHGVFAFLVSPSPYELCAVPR
UniProt P51589, sequence (whole entry, looked up): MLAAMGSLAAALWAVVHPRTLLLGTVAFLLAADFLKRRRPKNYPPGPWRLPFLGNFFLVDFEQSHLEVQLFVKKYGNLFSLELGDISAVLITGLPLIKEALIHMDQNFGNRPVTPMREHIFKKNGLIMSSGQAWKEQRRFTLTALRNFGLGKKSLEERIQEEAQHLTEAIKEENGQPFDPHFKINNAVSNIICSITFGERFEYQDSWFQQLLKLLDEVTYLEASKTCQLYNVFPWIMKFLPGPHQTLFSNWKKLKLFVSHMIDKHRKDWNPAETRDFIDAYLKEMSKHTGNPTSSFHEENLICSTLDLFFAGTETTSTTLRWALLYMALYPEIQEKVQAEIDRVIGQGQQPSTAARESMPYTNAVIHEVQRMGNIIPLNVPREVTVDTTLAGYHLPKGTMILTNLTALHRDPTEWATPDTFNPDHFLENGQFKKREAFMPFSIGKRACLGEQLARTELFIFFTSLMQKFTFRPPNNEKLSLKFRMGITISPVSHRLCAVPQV
UniProt Q9H3R0, sequence (whole entry, looked up): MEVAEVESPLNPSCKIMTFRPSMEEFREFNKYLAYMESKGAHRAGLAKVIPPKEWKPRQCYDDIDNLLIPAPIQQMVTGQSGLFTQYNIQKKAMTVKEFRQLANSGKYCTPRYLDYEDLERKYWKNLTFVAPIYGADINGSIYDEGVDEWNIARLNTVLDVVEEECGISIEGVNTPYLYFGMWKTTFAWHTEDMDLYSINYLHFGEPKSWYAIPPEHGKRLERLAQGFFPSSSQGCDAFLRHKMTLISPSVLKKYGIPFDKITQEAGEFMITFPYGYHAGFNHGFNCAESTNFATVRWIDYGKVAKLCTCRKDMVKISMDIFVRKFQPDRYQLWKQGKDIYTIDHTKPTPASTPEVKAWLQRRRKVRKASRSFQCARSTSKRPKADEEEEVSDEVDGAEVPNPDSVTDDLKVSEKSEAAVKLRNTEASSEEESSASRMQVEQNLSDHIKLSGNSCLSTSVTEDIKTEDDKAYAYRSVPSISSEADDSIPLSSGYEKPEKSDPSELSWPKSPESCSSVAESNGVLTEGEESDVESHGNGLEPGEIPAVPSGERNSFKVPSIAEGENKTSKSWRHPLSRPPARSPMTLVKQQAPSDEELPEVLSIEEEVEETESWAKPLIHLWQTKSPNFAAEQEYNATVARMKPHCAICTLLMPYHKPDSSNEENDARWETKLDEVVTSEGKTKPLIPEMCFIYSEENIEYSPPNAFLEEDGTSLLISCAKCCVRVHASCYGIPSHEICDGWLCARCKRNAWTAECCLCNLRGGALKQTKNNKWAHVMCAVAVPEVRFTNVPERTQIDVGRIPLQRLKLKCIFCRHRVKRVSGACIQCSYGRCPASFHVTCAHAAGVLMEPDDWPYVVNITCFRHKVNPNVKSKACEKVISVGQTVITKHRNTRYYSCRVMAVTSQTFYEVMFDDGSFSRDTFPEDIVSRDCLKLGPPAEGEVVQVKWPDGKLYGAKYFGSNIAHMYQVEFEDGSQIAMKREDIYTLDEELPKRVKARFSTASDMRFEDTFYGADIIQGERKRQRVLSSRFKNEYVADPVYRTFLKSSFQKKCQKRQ
UniProt Q96JM7, sequence (whole entry, looked up): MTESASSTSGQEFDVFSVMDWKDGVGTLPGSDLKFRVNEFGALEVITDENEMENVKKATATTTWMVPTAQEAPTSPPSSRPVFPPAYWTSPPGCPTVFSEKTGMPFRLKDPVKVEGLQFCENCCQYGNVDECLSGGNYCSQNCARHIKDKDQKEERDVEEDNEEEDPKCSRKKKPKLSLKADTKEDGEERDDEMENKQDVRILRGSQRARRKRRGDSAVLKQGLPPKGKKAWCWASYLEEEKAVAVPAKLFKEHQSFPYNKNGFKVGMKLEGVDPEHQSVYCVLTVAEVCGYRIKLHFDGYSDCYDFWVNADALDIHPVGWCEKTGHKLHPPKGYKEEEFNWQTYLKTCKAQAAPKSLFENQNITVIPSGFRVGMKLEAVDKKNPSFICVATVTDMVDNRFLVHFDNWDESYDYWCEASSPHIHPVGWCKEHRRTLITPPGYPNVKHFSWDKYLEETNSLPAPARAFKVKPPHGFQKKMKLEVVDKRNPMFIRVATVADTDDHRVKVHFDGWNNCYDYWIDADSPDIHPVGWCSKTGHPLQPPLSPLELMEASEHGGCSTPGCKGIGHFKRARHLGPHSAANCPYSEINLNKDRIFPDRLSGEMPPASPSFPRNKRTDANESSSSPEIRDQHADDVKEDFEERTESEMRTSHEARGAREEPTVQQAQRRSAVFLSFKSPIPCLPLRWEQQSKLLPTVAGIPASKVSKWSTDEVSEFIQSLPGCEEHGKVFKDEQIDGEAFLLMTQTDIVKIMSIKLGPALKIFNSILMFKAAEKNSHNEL
UniProt P10636, sequence (whole entry, looked up): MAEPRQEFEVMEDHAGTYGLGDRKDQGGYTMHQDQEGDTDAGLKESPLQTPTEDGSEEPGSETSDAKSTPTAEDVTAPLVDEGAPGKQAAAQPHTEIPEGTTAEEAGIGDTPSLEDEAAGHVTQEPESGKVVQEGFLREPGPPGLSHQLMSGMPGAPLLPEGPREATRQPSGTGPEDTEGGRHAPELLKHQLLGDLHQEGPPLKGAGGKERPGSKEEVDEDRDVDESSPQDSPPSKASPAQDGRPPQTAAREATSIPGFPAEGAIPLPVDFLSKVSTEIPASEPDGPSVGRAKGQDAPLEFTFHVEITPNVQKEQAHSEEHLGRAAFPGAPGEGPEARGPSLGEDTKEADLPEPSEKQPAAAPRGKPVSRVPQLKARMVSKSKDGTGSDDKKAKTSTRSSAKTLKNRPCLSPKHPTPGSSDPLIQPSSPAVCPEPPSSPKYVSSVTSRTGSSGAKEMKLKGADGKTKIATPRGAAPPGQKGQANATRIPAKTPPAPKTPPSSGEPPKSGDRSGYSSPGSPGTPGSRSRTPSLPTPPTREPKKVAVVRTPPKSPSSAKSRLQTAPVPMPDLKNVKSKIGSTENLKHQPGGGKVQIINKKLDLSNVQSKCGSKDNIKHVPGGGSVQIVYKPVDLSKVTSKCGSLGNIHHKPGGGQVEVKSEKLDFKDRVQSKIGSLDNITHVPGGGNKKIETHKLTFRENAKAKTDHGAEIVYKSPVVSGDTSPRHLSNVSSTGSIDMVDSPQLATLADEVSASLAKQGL
UniProt P56658, sequence (whole entry, looked up): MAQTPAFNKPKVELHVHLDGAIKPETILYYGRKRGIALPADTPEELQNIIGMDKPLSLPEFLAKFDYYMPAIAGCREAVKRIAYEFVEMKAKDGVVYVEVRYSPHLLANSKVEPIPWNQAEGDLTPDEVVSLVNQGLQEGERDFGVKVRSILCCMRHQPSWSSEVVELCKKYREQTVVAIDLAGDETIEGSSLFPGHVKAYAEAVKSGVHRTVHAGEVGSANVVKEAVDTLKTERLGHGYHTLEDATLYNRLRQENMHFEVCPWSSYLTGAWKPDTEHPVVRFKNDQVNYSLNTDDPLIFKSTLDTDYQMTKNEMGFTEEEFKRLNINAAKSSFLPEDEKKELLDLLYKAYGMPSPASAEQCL

Cc1nc2ccc(S(=O)(=O)n3nc(SCc4ccc(Cl)cc4)nc3N)cc2s1
inhibition (CYP1A2; enzyme activity, inhibitor; human, liver microsomes; 10 µM): 32%

[18F]c1ncccc1-c1ccc2c(n1)[nH]c1ccncc12
initial brain uptake (MAPT (Homo sapiens, UniProt P10636); PET imaging; Alzheimer's disease patients; intravenous, dose not given, first 5 min): ~4 SUV

COC1C(c2ccc(Cl)c(Cc3ccc(OC4CCOC4)cc3)c2)OC(CO)C(O)C1O (stereo not shown)
inhibition (CYP1A2; enzyme activity, inhibitor; human, liver microsomes; 10 µM, 10 min): < 1%

O=C(c1ccc(C(=O)N2CCC(N3CCCCC3)CC2)cc1)N1CCC(N2CCCCC2)CC1
FRAP recovery half-time (Lethal(3)malignant brain tumor-like protein 3, MBT domains (Homo sapiens, UniProt Q96JM7); FRAP; human cells; 1 µM): 8.2 s

Nc1nc(N)c2nsc([C@@H]3O[C@H](CO)[C@@H](O)[C@H]3O)c2n1
deamination half-life (Adenosine deaminase (ADA, Bos taurus, UniProt P56658); substrate, HPLC; bovine enzyme; 11.1 µM, pH 7.4, binary substrate mixture): 0.98 ± 0.00667 min

[2H]c1c(NS(C)(=O)=O)c([2H])c2c(C(=O)c3ccc(OCCCN(CCCC)CCCC)cc3)c(CCCC)oc2c1[2H]
kinact/KI (Cytochrome P450 2J2 (CYP2J2, Homo sapiens, UniProt P51589); inactivator; added: astemizole substrate): 133 M⁻¹ s⁻¹

CC(C)c1ccc(N(C)c2ccc3c(c2)OCC[C@H]3CNc2cnccc2C(=O)O)cc1
residence half-life (KDM4C (Homo sapiens, UniProt Q9H3R0); TR-FRET): 68 ± 4 min

O=C(CN1CN(c2ccccc2)C2(CCN(C(=O)c3ccc4[nH]ncc4c3)CC2)C1=O)N(CCO)CC(F)(F)F
IC50 (CYP2D6; enzyme activity, inhibitor): > 50 µM

Cc1ncsc1-c1ccc(C(C)NC(=O)C2CC(O)CN2C(=O)C(NC(=O)CCCCCCCCCCN2CCCC(Nc3ncc(Cl)c(Nc4ccccc4S(=O)(=O)C(C)C)n3)C2)C(C)(C)C)cc1 (stereo not shown)
log2 fold change (22Rv1; RNA-seq, item: USP40 mRNA; concentration not given; baseline: DMSO): -1.02

O=C1NC2(CC2)COc2ncc(F)cc2[C@H]2COCCN2c2ccn3ncc1c3n2
relative population doubling (CHL cells; chromosomal aberration test; 10 µg/mL, 24 h, without S9 mix; baseline: solvent control): 65.3%

COC1CN([C@H]2CC[C@H]([C@@]3(C)Oc4c(Cl)cc(C(=O)NCc5c(SC)cc(C)[nH]c5=O)c(C)c4O3)CC2)C1
log2 fold change (RNA-seq, item: PLAG1 mouse homolog; mouse, HT-1376 xenograft, whole blood; dose not given; baseline: vehicle): 1.74

N#Cc1cccc(N2CN(CC(=O)NCC(F)(F)F)C(=O)C23CCN(C(=O)c2cnc4[nH]ncc4c2)CC3)c1
IC50 (CYP2D6; enzyme activity, inhibitor): 16 µM

CNC(=O)C1CCCN(C(=O)C2CC3CCC2N3C(=O)[C@@H]2C[C@@H](O)CN2C(=O)NCc2cccc(Cl)c2F)C1 (mixture of isomers)
remaining activity (Cytochrome P450 2C8 (CYP2C8, Homo sapiens, UniProt P10632); preincubation without NADPH; human; 16.7 µM; baseline: negative control): 86.3% and 89.3% and 91.8%

O=C(CN1CN(c2cccc(F)c2)C2(CCN(C(=O)c3cnc4[nH]ncc4c3)CC2)C1=O)NCC(F)(F)F
IC50 (CYP2D6; enzyme activity, inhibitor): 13 µM

C=C(NC(=O)c1csc(-c2nc3c(cc2O)-c2nc(cs2)C(=O)NC(C(C)O)C(=O)NC(=C(C)OC)c2nc(cs2)C(=O)NC2c4nc(cs4)C(=O)NC(COC(=O)c4c5c6c(cccc6n4O)COC(=O)C(OC4CC(C)(O)C(N(C)C)C(C)O4)C2OC5)c2nc-3cs2)n1)C(N)=O (stereo not shown)
Cmax (male Sprague-Dawley rat, plasma; intravenous, 2 mg/kg, single dose, infusion): 2310 ng/mL

CNS(=O)(=O)Nc1nccc(Cc2c(C)c3ccc(Oc4ncccc4F)cc3oc2=O)c1F
IC50 (NCI-H1623; cell viability; 7 days): 0.0402 µM

For quick reference, copied from above:
CC(C)c1ccc(N(C)c2ccc3c(c2)OCC[C@H]3CNc2cnccc2C(=O)O)cc1
residence half-life (KDM4C (Homo sapiens, UniProt Q9H3R0); TR-FRET): 68 ± 4 min

O=C(CN1CN(c2ccccc2)C2(CCN(C(=O)c3ccc4[nH]ncc4c3)CC2)C1=O)N(CCO)CC(F)(F)F
IC50 (CYP2D6; enzyme activity, inhibitor): > 50 µM
